Experimental data pooled from the literature.
Compare with care: the assays were run in different laboratories.
Target: Prostaglandin G/H synthase 2 (PTGS2, Homo sapiens, UniProt P35354)
Sequence of UniProt P35354 (whole entry, looked up): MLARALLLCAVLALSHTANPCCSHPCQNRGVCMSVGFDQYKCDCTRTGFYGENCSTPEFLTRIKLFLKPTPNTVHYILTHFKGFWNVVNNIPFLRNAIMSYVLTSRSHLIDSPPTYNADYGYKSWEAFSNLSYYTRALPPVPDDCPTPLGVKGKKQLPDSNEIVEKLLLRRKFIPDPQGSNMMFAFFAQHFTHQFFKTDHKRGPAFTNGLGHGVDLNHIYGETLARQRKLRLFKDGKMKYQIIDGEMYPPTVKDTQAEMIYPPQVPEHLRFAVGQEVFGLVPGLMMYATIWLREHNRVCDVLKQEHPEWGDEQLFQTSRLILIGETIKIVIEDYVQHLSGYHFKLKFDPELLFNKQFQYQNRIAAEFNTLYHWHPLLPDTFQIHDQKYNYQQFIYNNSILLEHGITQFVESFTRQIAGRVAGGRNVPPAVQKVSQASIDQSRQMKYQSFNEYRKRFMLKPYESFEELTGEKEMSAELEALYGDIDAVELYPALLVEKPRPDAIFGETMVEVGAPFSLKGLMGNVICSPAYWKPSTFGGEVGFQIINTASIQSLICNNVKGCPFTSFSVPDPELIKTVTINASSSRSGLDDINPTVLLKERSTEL
Mode: inhibitor

C(=C\c1ccccc1)/N=c1\oc2ccccc2cc1-c1ccccc1 — IC50 (enzyme activity): 0.0183 µM
NS(=O)(=O)c1ccc(-n2cc(CNc3ccccc3)c(-c3ccc(OCc4ccccc4)cc3)n2)cc1 — IC50 (enzyme activity, absorbance): 3.04 µM
O=C1CCCCC1C(C[N+](=O)[O-])c1ccccc1 (centres unmarked) — IC50 (enzyme activity): 49.7 µM
Fc1ccc(/N=c2\oc3ccccc3cc2-c2ccccc2)cc1 — IC50 (enzyme activity): 0.0111 µM
Clc1ccc(NCc2cn(-c3ccccc3)nc2-c2ccc(OCc3ccccc3)cc2)cc1 — IC50 (enzyme activity, absorbance): 4.31 µM
O=C(O)Cc1cc(F)ccc1Nc1c(Cl)cccc1Cl — IC50 (enzyme activity, fluorescence): 7.8 µM
O=C(c1ccncc1)N1N=C2/C(=C/c3ccc4ccccc4c3)CCCC2C1c1ccc2ccccc2c1 (centres unmarked) — IC50 (enzyme activity): 0.088 µM
CN(C(=O)c1ccn2ncc(-c3ccc(C(N)=O)cc3)c2c1)c1ccc(C#N)cn1 — IC50 (cell-free assay): > 30 µM
c1ccc(-c2ccc(/N=c3\oc4ccccc4cc3-c3ccccc3)cc2)cc1 — IC50 (enzyme activity): 0.0113 µM
Fc1ccc(Nc2c(Cl)cccc2Cl)c(Cc2nnn[nH]2)c1 — IC50 (enzyme activity, fluorescence): 48 µM
Fc1ccc(NCc2cn(-c3ccccc3)nc2-c2ccc(OCc3ccccc3)cc2)cc1Cl — IC50 (enzyme activity, absorbance): 4.25 µM
COc1cccc(/N=c2\oc3ccccc3cc2-c2ccccc2)c1 — IC50 (enzyme activity): 0.0087 µM
Clc1cccc(Cl)c1Nc1ccccc1Cc1nnn[nH]1 — IC50 (enzyme activity, fluorescence): 12 µM
COc1cc(O)c2c(c1)O[C@H](c1ccccc1)CC2=O — IC50 (enzyme activity, fluorescence): 34.1 µM
FC(F)(F)c1ccc(/N=c2\oc3ccccc3cc2-c2ccccc2)cc1 — IC50 (enzyme activity): 0.0087 µM
COc1cc2c(=O)oc3c(OC)c(O)cc4c(=O)oc(c1OC)c2c34 — IC50 (enzyme activity, fluorescence): 13.9 µM
N#Cc1ccc(/N=c2\oc3ccccc3cc2-c2ccccc2)cc1 — IC50 (enzyme activity): 0.0192 µM
NS(=O)(=O)c1ccc(-n2cc(CNc3ccc(F)cc3)c(-c3ccc(OCc4ccccc4)cc3)n2)cc1 — IC50 (enzyme activity, absorbance): 2.87 µM
COc1cc2c(=O)oc3c(OC)c(OC)cc4c(=O)oc(c1OC)c2c34 — IC50 (enzyme activity, fluorescence): 16.5 µM
Fc1ccccc1NCc1cn(-c2ccccc2)nc1-c1ccc(OCc2ccccc2)cc1 — IC50 (enzyme activity, absorbance): 9.45 µM
FC(F)(F)Oc1ccc(/N=c2\oc3ccccc3cc2-c2ccccc2)cc1 — IC50 (enzyme activity): 0.0095 µM
Clc1cnccn1 — IC50 (enzyme activity, fluorescence): 178 µM
COc1cccc(NCc2cn(-c3ccccc3)nc2-c2ccc(OCc3ccccc3)cc2)c1 — IC50 (enzyme activity, absorbance): 4.71 µM
